Measured values gathered from unrelated publications.
Every numbered part comes from another study and shows a few of its results, in no order. Changes are numbered by the printed parent chain.

Sample 1
Target: Interferon regulatory factor 5, full length, phosphomimetic (IRF5, Homo sapiens, UniProt Q13568-2, residues 1-514, S451D/S453D/S456D/S462D)
Technique: protein-binding microarray
Molecule type: double-stranded DNA, one strand shown
Sample: in vitro
Concentration: 940 nM top
Setting: 60-bp whole probe
Added: salmon DNA 0.4 mg/ml
Relative to: random background probes
Direction: higher = stronger binding
Endpoint: fitted relative affinity
Constant ends, left off below: GCCTAGCAC … GTCTTGATTCGCTTGACGCTGCTG
TTAGTTCTCGGTATCGGTTAGTGCTAG: 7.96 z-score
TTCGGTCTCGGACTGGGTTAGTGCTAG: 1.25 z-score
TCAAATTTGCTTTAGTCACTGTGCTAG: -0.0235 z-score
TTAGGTTCCGGTTTCGGTTCGTGCTAG: 8.86 z-score
CTCTATACCCATGTAGAGAGGTGCTAG: -0.0808 z-score
GACGGTTTCGATCTCGGGACGTGCTAG: 11.4 z-score
GAAGCCCTCCCTGTGGGGGGGTGCTAG: 1.57 z-score
TTATATTTCAGTTCCGATTAGTGCTAG: 2.2 z-score
GACGGTTTCGGAGTGGGGACGTGCTAG: 5.7 z-score
GACGGTATCGGGTTTGGGGACGTGCTA: 4.34 z-score
TTAGGTATCGACTATCGATTAGTGCTA: 6.18 z-score
TTCAATTTTTGCATCGTAAGGTGCTAG: 0.346 z-score
TTAGAACCGGGGACTGGATTAGTGCTA: -0.17 z-score
TCAAGTCTCAATATTAGACTGTGCTAG: 1.51 z-score
TTAGGTATCGGCTATCGGTTAGTGCTA: 5.41 z-score

Sample 2
Target: CCNA2, cyclin fold, Cln2 fusion (human)
Technique: yeast growth competition, sequencing
Sample: yeast
Setting: strong parent motif
Relative to: not given
Direction: higher = stronger binding
Endpoint: normalised enrichment score
Parent: PKN2 docking peptide (human); VSAVRKLDFSDTM
D11W: 4.45
S10D: 5.45
R5L: 1.33
D8L: 4.38
D11C: 5.07
F9M: 2.69
D8I: 5.07
K6M: 4.75
S2L: 4.71
A3T: 4.16
V4M: 5.21
T12D: 4.93
L7C: 0.0888
D8Y: 4.37
T12Y: 5.44
S2C: 5.3
D11A: 5.46
K6D: -0.16
F9H: 0.000185
S2M: 4.89
A3C: 5.16
L7I: 4.21
A3M: 3.77
T12P: 5.27
K6V: 4.36

Sample 3
Target: CEBPB, bZIP domain (human)
Technique: DHFR protein complementation
Sample: yeast
Setting: single substitutions, most at no-binding floor
Relative to: wild-type JUN-FOS pair
Direction: higher = stronger binding
Endpoint: binding fitness
Parent: JUN, bZIP domain (human); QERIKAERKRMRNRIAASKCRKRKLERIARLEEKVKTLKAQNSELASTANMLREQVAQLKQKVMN; partner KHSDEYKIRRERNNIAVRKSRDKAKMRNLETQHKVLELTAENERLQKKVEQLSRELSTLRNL
E54H: -1.3 natural log
E54L: -1.35 natural log
L38S: -1.58 natural log
A49N: -1.41 natural log
K39D: -1.41 natural log
K36N: -1.29 natural log
S47F: -1.37 natural log
T37L: -1.19 natural log
A46M: -1.24 natural log
L38V: -1.47 natural log
K39E: -1.22 natural log
K36S: -1.32 natural log
N42L: -1.51 natural log
K36F: -1.53 natural log
T37V: -1.24 natural log
I28S: -1.21 natural log
S47N: -1.32 natural log
Q58P: -1.51 natural log

Sample 4
Target: RING finger protein unkempt homolog, zinc fingers 1-6, GST-SBP tag (UNK, Homo sapiens, UniProt Q9C0B0, residues 30-357)
UniProt Q9C0B0, sequence (30-357, looked up): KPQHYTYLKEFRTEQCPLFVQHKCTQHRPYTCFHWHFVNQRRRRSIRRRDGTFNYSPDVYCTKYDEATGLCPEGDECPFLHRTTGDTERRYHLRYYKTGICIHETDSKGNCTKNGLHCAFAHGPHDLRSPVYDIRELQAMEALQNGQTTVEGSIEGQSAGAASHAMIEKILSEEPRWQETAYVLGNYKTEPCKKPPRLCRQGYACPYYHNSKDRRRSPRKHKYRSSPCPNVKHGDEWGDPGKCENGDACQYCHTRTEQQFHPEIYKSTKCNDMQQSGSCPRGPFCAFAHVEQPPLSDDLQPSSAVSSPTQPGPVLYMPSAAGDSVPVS
Technique: RNA Bind-n-Seq
Molecule type: RNA
Sample: in vitro
Concentration: not given
Setting: RNA with constant flanks, human-mouse chimeric sites, ends assumed
Relative to: input RNA pool
Direction: higher = stronger binding
Endpoint: bound/input enrichment
Constant ends, left off below: GGGAGUUCUACAGUCCGACGAUC … CAACAGAGGAUUGAGCAUCA
GAUAGGAAAAGCUUGUUGGAGACCCGCUUGCAUGUCACUGGUAGAGACCUGAGGUGUCAAAUAGCUGAAACUUUCGGAUUUCAAGAAAAUUACAUCAAGAUCGUAAUAAAUAAGAAGCAG: 0.642 ratio
UCUGGCCACACUCGUGUGUAUGGUGUUUGCUUUGUGGACACUUCACUGGGCAAGUUUUUCAUCGGCCAGUUUUCAGAUGACCGCCACUGUUCCAGAUUUAGGACGCUAGUGGCUCACUAU: 0.18 ratio
CACACACUCUUCUGCGGCACCCUCAUUUUGCAGGCCCGGGCCUAUGUGGGACCGCACGUCCUGGCAGUGGUGACCCGCACAGGGUUCUGCACAGCCAAAGGGGGCCUGGUGAGCUCCAUC: 0.109 ratio
CACGUGUCUGCAGUACUUGAUGUGGAUUACUCUCCCACUGGGAAGGAAUUUGUGUCUGCCAGCUUUGAUAAGUCUAUUAGAAUCUUUCCUGUGGACAAAAGUCGAAGCAGGGAAGUGUAU: 0.244 ratio
AGAGCCCAGGAUGUUGAUGCUACAAAUCCAAAUUAUGAAAUUAUGUGUAUGAUCAGAGACUUUAGAGGGAGCUUGGAUUACAGACCCCUAACAACAGCAGAUCCUAUUGAUGAACAUAGG: 0.555 ratio
GUACUGCAACAGCAGGGAAAACUGCAGGAAGCUCUGAUGCAUUAUAAGGAGGCUAUUCGAAUUAGUCCUACCUUUGCUGAUGCCUACUCUAAUAUGGGAAACACUCUAAAGGAGAUGCAG: 0.205 ratio
AUCAAAUACUUUGGGGACAUCAUUAGUGUGGGACAGAGACUGUUGCAAGGGGCCCGGAUCUUAGGGAUUCCAGUUAUCAUAACGGAACAAUACCCCAAAGGACUUGGCAGCACCGUUCAA: 0.251 ratio
UAUAUCACCAAUGUCCUACAAAAUCCUGAUUUGGCUCUGAGAAUGGCUGUGCGGAACAACUUAGCUGGUGCUGAAGAACUCUUUGCCCGGAAAUUUAAUGCUCUCUUCGCCCAGGGAAAC: 0.678 ratio
